Measured values gathered from unrelated publications.
A part holds a random share of what one study measured.

Series 1
Target: Ras GTPase-activating protein-binding protein 1, full length (G3BP1, Homo sapiens, UniProt Q13283)
Sequence of UniProt Q13283 (whole entry, looked up): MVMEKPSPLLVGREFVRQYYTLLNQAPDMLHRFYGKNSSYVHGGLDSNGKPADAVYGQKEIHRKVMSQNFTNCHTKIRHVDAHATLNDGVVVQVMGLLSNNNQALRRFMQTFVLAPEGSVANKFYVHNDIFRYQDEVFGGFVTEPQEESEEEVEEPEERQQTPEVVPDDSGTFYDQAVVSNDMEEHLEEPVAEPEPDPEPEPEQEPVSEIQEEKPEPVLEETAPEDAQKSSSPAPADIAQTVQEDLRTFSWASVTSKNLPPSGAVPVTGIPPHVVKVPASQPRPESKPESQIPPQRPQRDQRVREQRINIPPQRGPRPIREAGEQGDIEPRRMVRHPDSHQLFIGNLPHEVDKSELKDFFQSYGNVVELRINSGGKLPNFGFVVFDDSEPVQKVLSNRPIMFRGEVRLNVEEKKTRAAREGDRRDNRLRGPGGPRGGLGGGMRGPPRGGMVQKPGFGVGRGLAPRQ
Method: RNA Bind-n-Seq
Molecule type: RNA
Sample: in vitro
Concentration: 200 nM
Setting: whole 134-nt RNA, ends assumed
Together with: 150 mM KCl
Reference: input library
Reading: higher = stronger binding
| Strand | log2 enrichment |
| --- | --- |
| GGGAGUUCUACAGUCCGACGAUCUAAGGAUUCUAUCUGCUUACUGCUACAGACCUAUGUGUUAAGGAAUUCUUCUCCUCCUCCUUGCGUAGAAGUUGAUCAGCACUGUGGUCAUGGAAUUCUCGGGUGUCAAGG | 0.0516 |
| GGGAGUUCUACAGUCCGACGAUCUCCUCAAGUCCUGUGCUACACAUCGUAUGUACCGAAUCGGAGGGAGGAGGGAAAGUAUUAUGUUACGCCGUUCGGAUCUGCACUUCCAGCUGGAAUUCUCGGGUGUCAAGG | -0.252 |
| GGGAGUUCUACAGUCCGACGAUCACCAUGCAGGUGGGCAUCUUUGGGAAGUGGGGCAAGGGGGGGAUAGGGAGGGGGGUAACAUUUUGGGAACAGGUGGUCCCAGGUCGUUUCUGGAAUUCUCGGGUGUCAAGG | 1.25 |
| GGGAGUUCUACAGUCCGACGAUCUAACUUUAGAGGAGGAUCGGAUGGAUAUGGCAGUGGACGUGGAUUUGGGGAUGGCUAUAAUGGGUAUGGAGGAGGACCUGGAGGUGGCAAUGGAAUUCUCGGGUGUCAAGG | 0.429 |
| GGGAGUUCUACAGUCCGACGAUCAAGUCCUGUGCUACACAUCGUAUGUACCGAAUCGGUUUGGAAAAAAAGGUUUUUGGAAAGUAUUAUGUUACGCCGUUCGGAUCUGCACUUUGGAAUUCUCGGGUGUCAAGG | -1.44 |
| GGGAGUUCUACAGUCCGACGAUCCUGUGCUACACAUCGUAUGUACCGAAUCGGUUUUUUUGGGUUUUUUUGGGGUUUUUUUGGGAAAGUAUUAUGUUACGCCGUUCGGAUCUGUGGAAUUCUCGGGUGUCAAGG | -1.02 |
| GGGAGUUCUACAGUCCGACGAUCCUGUGCUACACAUCGUAUGUACCGAAUCGGGAAAAAAAGGGAAAAAAAGGGGAAAAAAAGGGAAAGUAUUAUGUUACGCCGUUCGGAUCUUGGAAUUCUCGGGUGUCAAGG | -0.729 |
| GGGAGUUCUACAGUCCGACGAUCGCAGGAAGUAAAAACAAAUGGAAACGCUUCGGAUAGUGGCAGGGGUGGGGGUUGCUAAGGAAAGGGUGGGAUGGGAGUGGGUAAAGAGUUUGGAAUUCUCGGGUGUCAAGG | 0.982 |
| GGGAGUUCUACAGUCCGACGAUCUAACUUUAGAGGAGGAUCUGAUGGAUAUGGCAGUGGACGUGGAUUUGGGGAUGGCUAUAAUGGGUAUGGAGAAGGACCUGGAGGUGGCAAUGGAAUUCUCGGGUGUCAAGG | 0.305 |

Series 2
Target: human cyclin A2
Effect on: peptide binding
Method: competitive growth sequencing
Molecule type: peptide
Organism: Saccharomyces cerevisiae
Strain: cyclin A2-Cln2 fusion strain
Concentration: concentration not given
Setting: peptide tiling library
Reference: unfused Cln2 strain
Reading: direction not given
| Molecule | binding score |
| --- | --- |
| TSPGPVLLHPSPSTTQ | 0.0696 |
| KRNLLNEFDRII | 2.31 |
| GAEELEDLVHFSVSEL | 0.766 |
| RTSACRSLFGPVDHEE | 1.89 |
| KDDDKAWEYEERDRRS | 0.682 |
| RQVRRDLFAF | 0.716 |
| RNRGPKLNAMLRLGVL | 0.571 |
| VRDLSYRLVFLACCVA | 0.184 |

Series 3
Target: Histone acetyltransferase KAT6A, winged helix 2, GST fusion (KAT6A, Homo sapiens, UniProt Q92794, residues 85-181)
Method: protein binding microarray
Molecule type: double-stranded DNA, one strand shown
Sample: in vitro
Concentration: not given
Setting: 8-mer, flanks averaged, mean of 2 arrays, mostly near background
Reference: not given
Reading: higher = stronger binding
Target sequence (chain): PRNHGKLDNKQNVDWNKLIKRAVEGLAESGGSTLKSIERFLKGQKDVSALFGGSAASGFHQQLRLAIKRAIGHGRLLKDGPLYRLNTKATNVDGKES
| Strand | E-score |
| --- | --- |
| ATCAAAAA | 0.0768 |
| CCTTCTCG | -0.0384 |
| AAGCCAGC | 0.0812 |
| ATAGCGTC | -0.115 |
| AATACGAC | 0.0195 |
| CGGCCACC | 0.169 |
| CGTCGAAA | 0.0333 |
| AGCTAGTC | -0.109 |
| AGTTTACC | 0.0643 |
| GACTTGCC | -0.0549 |

Single results of other studies
| Substance | target | test | system | conditions | scale | quantity | value |
| --- | --- | --- | --- | --- | --- | --- | --- |
| PhoQ, residues 284 288 289 292 302 303 GTAMQF | PhoP, residues 12 14 15 18 19 AGCRL (Escherichia coli, UniProt P23836) | Sort-seq, refers to: YFP reporter | E. coli | PhoQ-PhoP variant library, together with: 10 µM Mg2+ | reference: high Mg2+ state, higher = stronger signaling | fold induction | 2.61 |

For quick reference, copied from above (series 3):
| Strand | E-score |
| --- | --- |
| ATCAAAAA | 0.0768 |
| CCTTCTCG | -0.0384 |
